Measured values from different studies.
Protocols differ between the studies behind these lines. Several values in a cell are separate wells, animals, samples, runs or records. ± marks the error that the study gave.
Oprd1: Delta-type opioid receptor (Oprd1, Rattus norvegicus, UniProt P33533)
Sequence of UniProt O15297 (whole entry, looked up): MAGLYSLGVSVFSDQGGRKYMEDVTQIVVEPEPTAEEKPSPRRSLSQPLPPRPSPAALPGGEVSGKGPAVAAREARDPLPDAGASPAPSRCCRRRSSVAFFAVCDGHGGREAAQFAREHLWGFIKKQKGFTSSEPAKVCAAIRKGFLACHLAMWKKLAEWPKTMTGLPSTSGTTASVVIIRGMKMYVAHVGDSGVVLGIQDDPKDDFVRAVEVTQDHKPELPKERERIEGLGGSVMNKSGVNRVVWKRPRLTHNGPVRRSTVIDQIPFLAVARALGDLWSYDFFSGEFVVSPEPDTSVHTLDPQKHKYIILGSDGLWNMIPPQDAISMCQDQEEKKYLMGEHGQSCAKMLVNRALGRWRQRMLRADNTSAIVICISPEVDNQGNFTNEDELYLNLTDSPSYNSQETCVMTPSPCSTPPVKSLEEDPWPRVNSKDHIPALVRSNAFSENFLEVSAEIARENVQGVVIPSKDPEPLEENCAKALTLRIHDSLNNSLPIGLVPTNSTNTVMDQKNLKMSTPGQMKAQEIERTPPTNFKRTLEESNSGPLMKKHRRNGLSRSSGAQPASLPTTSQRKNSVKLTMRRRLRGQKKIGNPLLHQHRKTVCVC
Sequence of UniProt P33533 (whole entry, looked up): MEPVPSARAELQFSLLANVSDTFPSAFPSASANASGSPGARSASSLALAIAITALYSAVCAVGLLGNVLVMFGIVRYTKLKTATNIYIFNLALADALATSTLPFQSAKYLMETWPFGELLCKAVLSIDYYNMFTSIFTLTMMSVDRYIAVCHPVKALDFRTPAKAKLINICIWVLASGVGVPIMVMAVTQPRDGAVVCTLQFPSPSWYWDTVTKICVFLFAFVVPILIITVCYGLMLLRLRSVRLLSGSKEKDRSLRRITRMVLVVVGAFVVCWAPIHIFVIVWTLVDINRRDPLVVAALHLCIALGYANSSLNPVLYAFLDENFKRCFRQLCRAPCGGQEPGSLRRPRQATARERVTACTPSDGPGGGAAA
Sequence of UniProt P35367 (whole entry, looked up): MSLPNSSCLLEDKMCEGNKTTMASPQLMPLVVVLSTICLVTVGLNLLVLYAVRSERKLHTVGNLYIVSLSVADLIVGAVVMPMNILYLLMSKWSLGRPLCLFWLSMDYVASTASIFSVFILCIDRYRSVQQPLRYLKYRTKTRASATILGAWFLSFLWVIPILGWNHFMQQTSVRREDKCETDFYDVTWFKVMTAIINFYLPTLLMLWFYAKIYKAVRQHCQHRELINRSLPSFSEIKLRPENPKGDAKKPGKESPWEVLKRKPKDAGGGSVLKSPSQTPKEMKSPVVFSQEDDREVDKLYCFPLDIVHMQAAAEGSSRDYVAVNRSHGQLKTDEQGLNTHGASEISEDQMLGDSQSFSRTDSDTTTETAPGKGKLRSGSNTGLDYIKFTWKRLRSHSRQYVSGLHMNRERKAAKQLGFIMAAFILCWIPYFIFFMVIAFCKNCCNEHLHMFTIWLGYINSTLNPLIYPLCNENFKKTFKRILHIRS
Sequence of UniProt Q9NSD7 (whole entry, looked up): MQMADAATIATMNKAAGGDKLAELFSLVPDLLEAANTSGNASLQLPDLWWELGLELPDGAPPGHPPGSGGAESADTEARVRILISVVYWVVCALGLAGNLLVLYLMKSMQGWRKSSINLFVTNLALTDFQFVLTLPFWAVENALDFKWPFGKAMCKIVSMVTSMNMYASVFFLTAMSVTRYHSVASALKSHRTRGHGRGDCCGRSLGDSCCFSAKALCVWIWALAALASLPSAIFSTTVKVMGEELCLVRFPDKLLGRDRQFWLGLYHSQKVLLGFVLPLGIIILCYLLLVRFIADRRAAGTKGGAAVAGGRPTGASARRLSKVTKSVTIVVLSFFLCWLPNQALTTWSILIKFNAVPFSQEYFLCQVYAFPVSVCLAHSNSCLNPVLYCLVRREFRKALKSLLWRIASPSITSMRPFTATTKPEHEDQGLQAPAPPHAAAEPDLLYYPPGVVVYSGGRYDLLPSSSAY
Sequence of UniProt Q9GZQ6 (whole entry, looked up): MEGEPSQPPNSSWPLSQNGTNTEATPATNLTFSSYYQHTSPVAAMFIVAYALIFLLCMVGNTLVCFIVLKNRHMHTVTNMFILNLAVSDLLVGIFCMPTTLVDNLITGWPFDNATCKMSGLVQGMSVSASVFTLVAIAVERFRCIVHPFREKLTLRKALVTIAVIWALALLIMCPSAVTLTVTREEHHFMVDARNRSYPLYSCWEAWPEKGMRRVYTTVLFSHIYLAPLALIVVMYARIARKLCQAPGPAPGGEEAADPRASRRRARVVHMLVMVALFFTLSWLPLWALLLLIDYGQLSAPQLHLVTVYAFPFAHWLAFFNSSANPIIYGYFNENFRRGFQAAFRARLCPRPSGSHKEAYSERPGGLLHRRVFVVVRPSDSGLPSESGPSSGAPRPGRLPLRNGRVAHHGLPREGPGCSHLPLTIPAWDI
Sequence of UniProt P08172 (whole entry, looked up): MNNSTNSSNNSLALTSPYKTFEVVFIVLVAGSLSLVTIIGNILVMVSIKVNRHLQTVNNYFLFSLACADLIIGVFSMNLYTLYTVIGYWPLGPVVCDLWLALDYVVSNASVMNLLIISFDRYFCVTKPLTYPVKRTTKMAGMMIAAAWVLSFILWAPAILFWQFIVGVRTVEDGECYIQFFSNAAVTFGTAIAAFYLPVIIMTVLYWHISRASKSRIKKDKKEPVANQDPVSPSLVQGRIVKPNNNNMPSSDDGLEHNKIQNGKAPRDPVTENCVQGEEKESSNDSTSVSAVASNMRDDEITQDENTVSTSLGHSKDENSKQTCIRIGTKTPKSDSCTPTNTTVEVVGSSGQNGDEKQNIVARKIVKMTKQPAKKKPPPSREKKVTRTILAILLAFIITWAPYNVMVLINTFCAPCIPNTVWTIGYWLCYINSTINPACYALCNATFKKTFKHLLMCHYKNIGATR
Sequence of UniProt P50406 (whole entry, looked up): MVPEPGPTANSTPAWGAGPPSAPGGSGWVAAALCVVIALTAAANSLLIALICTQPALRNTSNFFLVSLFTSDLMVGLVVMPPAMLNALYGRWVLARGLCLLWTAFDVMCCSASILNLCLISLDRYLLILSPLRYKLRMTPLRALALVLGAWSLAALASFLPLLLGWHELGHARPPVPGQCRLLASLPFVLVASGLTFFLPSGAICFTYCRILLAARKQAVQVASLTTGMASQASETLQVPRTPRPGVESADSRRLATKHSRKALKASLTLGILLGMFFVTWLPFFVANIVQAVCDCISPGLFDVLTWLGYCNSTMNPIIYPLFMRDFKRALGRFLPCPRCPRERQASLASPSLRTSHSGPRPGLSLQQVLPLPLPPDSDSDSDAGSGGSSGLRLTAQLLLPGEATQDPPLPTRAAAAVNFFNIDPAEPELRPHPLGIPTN
Sequence of UniProt P29317 (whole entry, looked up): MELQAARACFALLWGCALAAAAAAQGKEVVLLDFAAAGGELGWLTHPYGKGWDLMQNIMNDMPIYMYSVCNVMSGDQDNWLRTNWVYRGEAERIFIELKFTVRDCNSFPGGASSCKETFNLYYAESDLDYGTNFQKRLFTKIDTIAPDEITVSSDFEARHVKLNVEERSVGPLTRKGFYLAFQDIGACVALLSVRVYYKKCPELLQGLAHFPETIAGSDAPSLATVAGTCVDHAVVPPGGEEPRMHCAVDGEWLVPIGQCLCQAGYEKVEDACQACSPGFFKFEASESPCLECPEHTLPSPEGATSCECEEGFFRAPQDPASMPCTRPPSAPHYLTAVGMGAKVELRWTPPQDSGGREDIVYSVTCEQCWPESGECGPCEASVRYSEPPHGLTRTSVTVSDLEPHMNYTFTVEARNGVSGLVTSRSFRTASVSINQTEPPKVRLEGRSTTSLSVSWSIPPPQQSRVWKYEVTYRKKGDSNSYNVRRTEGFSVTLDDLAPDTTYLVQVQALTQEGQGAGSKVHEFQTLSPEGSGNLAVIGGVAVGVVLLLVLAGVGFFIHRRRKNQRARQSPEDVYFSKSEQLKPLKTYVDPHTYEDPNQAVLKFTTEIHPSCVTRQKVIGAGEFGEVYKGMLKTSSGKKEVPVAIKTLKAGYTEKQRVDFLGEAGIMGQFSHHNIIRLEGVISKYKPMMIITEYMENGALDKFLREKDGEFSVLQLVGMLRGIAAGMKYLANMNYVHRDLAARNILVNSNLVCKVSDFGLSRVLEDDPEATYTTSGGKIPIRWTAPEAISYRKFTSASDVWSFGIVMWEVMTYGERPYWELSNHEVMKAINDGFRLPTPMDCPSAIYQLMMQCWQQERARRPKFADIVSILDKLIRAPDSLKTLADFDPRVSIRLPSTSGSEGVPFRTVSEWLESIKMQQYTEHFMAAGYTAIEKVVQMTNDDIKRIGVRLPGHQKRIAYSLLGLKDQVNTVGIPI

SMILES | target | test | setting | Ki
CC(=O)N[C@H]1c2nc(CCc3ccccc3)cn2[C@H](CO)[C@@H](O)[C@@H]1O | human lysosomal hexosaminidase A/B | – | – | 0.00017 ± 5e-05 µM
CCN1CCN(C2=Nc3cc(Cl)ccc3Nc3ccccc32)CC1 | HRH1 (Homo sapiens, UniProt P35367) | cell-free assay, radioligand | – | < 0.005 µM and 0.0019 µM
CCCN(CCC)CC1CCCCN1CCNC(=O)N1c2ccccc2C(=O)Nc2cccnc21 (stereo not drawn) | CHRM2 (Homo sapiens, UniProt P08172) | cell-free assay, radioligand | – | 0.0158 µM
CC[C@H](C)[C@@H]1NC(=O)[C@@H](NC(=O)[C@H](CCC(=O)O)NC(=O)[C@H](CCCNC(=N)N)NC(=O)CNC(=O)[C@H](CO)NC(=O)[C@H](CC(C)C)NC(=O)[C@H](CCCNC(=N)N)NC(=O)[C@@H](NC(=O)CNC(=O)[C@H](Cc2ccc(O)cc2)NC(=O)[C@@H]2CCCN2C(=O)[C@H](C)NC(=O)[C@H](C)NC(=O)[C@@H](N)CCCNC(=N)N)C(C)C)CCCCNC(=O)C[C@@H](C(=O)N[C@H](C(=O)N[C@@H](Cc2ccccc2)C(=O)N[C@H](C(=O)N[C@@H](CO)C(=O)NCC(=O)NCC(=O)N[C@@H](CO)C(=O)N[C@@H](CCCNC(=N)N)C(=O)N[C@@H](Cc2c[nH]c3ccccc23)C(=O)O)[C@@H](C)O)[C@@H](C)CC)NC(=O)[C@H](C)NC(=O)[C@H](CCCNC(=N)N)NC1=O | RXFP3 (Homo sapiens, UniProt Q9NSD7) | ligand displacement | – | 1.29 µM
Cc1cc(O)cc(C)c1CC(N)C(=O)NC1CCNc2c(Cc3ccccc3)cccc21 (stereo not drawn) | Oprd1 | ligand displacement, radioligand | cell membranes | 0.36 µM
NC(c1ccccc1)P(=O)(O)O (racemic) | PAL1 (Petroselinum crispum, UniProt P24481) | enzyme activity, inhibitor, absorbance | pH 8.8 | 41.5 µM
CC[C@H](C)[C@@H]1NC(=O)[C@H](COP(=O)(O)O)NC(=O)[C@H](CCSC)NC(=O)CSC[C@@H](C(N)=O)NC(=O)[C@H](C)NC(=O)[C@H](C(C)C)NC(=O)[C@H](Cc2ccc(OP(=O)(O)O)cc2)NC1=O | PPM1D (Homo sapiens, UniProt O15297) | phosphatase activity, inhibitor, malachite green | together with: ATM pS1981 peptide | ~5 µM and 5 µM
N=C(N)Nc1ccc(C(=O)NCC2(Nc3ccccc3)CCN(Cc3ccccc3)CC2)cc1 | NPFFR1 (Homo sapiens, UniProt Q9GZQ6) | cell-free assay | – | 1.97 µM
COc1ccc2c(c1)c(CCN(C)C)cn2Cc1ccccc1 | HTR6 (Homo sapiens, UniProt P50406) | ligand displacement, radioligand | cell membranes | 0.023 µM
CC[C@@H]1NC(=O)[C@H](CCCNC(=N)N)NC(=O)[C@H](NC(=O)C(C)C)CCNC(=O)c2cc(F)c(c(F)c2)N=Nc2c(F)cc(cc2F)C(=O)NCCNC(=O)[C@@H](Cc2ccccc2)NC1=O | WDR5 (Homo sapiens, UniProt P61964) | ligand displacement, FP | – | 0.008 µM
Cc1cc(O)cc(C)c1CC(N)C(=O)NC1CCNc2c(C(=O)Nc3ccccc3)cc(Cc3ccccc3)cc21 (stereo not drawn) | Oprd1 | ligand displacement, radioligand | cell membranes | 0.0054 µM
CNC(=O)C1CCN(c2ccccc2NC(=O)c2ccc(-c3cc(O)ccc3C)c(C)n2)CC1 | EPHA2 (Homo sapiens, UniProt P29317) | cell-free assay, TR-FRET | – | 0.0001 µM

Some of these lines once more:
SMILES | target | test | setting | Ki
CC[C@H](C)[C@@H]1NC(=O)[C@H](COP(=O)(O)O)NC(=O)[C@H](CCSC)NC(=O)CSC[C@@H](C(N)=O)NC(=O)[C@H](C)NC(=O)[C@H](C(C)C)NC(=O)[C@H](Cc2ccc(OP(=O)(O)O)cc2)NC1=O | PPM1D (Homo sapiens, UniProt O15297) | phosphatase activity, inhibitor, malachite green | together with: ATM pS1981 peptide | ~5 µM and 5 µM
N=C(N)Nc1ccc(C(=O)NCC2(Nc3ccccc3)CCN(Cc3ccccc3)CC2)cc1 | NPFFR1 (Homo sapiens, UniProt Q9GZQ6) | cell-free assay | – | 1.97 µM
